Measurements pooled from the literature.
Protocols differ between the studies behind these lines. Several values in a cell are separate wells, animals, samples, runs or records. ± gives the spread as reported.

Cc1nn(-c2nc3ccc(Cl)c(Cl)c3[nH]2)c(O)c1C1OC(=O)c2ccccc21 (centres unmarked)  inhibition (RAW-ISG; IFN luciferase reporter; 80 µM, added: HT-DNA): 99% and 99.2% and 98.7% and 99.1%
Oc1cccc(-c2nc(N3CCOCC3)c3oc4ncccc4c3n2)c1  cell growth (SNU-1040; 0.33 µM, 72 h, 100% DMSO; baseline: vehicle): 100%
C=CC1=C(C)c2cc3[n-]c(cc4nc(cc5[n-]c(cc1n2)c(C)c5C=C)C(C)=C4CCC(=O)O)c(CCC(=O)O)c3C.[Zn+2]  fold change (SH-SY5Y; RNA-seq, measured: XYLT1 mRNA; 5 µM, 5 h; baseline: untreated cells): 1.79
CCCCCN1C[C@H](O)[C@@H](O)[C@H](O)[C@@H]1CO  IC50 (Sandhoff disease patient fibroblasts; glycosphingolipid lowering, LC-MS/MS, measured: GM3 d18:1/20:0; human): 0.641 µM
O=C(/C=C/C=C/C=C/C1CCCCC1)NC1=C[C@@](O)(/C=C/C=C/C=C/C(=O)NC2=C(O)CCC2=O)[C@@H]2O[C@@H]2C1=O  GI50 (YAPC; cell growth, CellTiter-Glo; 78 h): 19.9 µM
CCCCCCCCCCCCCCCCCCOc1ccccc1CC(=O)OCC[N+]1(C)CCOCC1  mean growth inhibition (NSCLC panel (nine cell lines); 10 µM): 38.4%
CCCCN1C[C@H](O)[C@@H](O)[C@H](O)[C@H]1CO  IC50 (Sandhoff disease patient fibroblasts; glycosphingolipid lowering, LC-MS/MS, measured: Gb3 d18:0/22:0): 3.18 µM
C[C@]12CCCN1CC1=NNC(=O)c3cc(F)cc4[nH]c2c1c34  EC50 (LS174T colorectal cancer cells; cell viability; concentration not given, added: with temozolomide): > 3 µM
Nc1cccc2c1C(=O)N(C1CCC(=O)NC1=O)C2=O (centres unmarked)  viability (MM1.S resistant to compound; XTT; 0.8 µM): 57% and 60% and 99%
C=CC(=O)N1[C@@H](c2ccc3c(c2)OCO3)c2[nH]c3ccccc3c2C[C@H]1C(=O)NC  neuron degeneration (rat DRG neurons; 30 µM, 48 h, added: vincristine 40 nM): 18.3% and 15.9%
COc1cc(/C=C/C(=O)N2CCC=CC2=O)cc(OC)c1OC  mRNA level (MDA-MB-468; qRT-PCR, measured: Skp1; 30 µM, 6 h; baseline: time zero): 95.9 ± 6.6%
CCCCCCCCCCCCCCCCCCOc1cccc(CC(=O)OCC[N+]2(C)CCOCC2)c1  mean growth inhibition (NSCLC panel (nine cell lines); 10 µM): 7.6%
CC/C(=N\NC(=O)NCc1cccc(O)c1)c1ccc(O)c(C)c1O  LATS band intensity (SK-OV-3; Western blot; 10 µM, 3 h, 2D culture, unit not given; baseline: DMSO): 1.17 ± 0.98
Nc1ncnc2nc(-c3ccc(N4CCOCC4)nc3)cc(-c3cccc(Br)c3)c12  T cell proliferation (activated human T cells; human; 31.6 nM): 74.2% and 63.6% and 69.3%
CCc1cnc(N2CCC(c3nc(COc4ccc(-n5cnnn5)cc4)cs3)CC2)nc1  normalized enrichment score (HEK-293T; RNA-seq GSEA, measured: HALLMARK_INTERFERON_ALPHA_RESPONSE; concentration not given; direction not given): -1.4
COc1cnc2cccc(N3CCc4c(cc(Cn5ccnc5C)cc4-c4cn(C)nc4C(F)(F)F)C3=O)c2c1  EC50 (Li-7; cell growth, inhibitor; 120 h): 0.903 µM
Cc1cc(N2CCc3c(c(C)nn3CC34CCC(NC(=O)[C@@H]5COCCN5)(CC3)CC4)C2)c2cnn(C)c2n1  inhibition (human PBMC; qRT-PCR, measured: OASL mRNA; 100 nM, added: ssRNA): 91%
COc1cccc2c1C(=O)c1c(O)c3c(c(O)c1C2=O)C[C@@](O)(C(=O)CO)C[C@@H]3O[C@H]1C[C@H](N)[C@H](O)[C@H](C)O1  point of departure (HepG2; measured: metallothionein protein; 24 h, distribution mode 2): 0.219 µM
O=C1NC(=O)[C@@H](c2cn3c4c(cccc24)CCC3)[C@@H]1c1c[nH]c2ccccc12  cell growth (SNU-1040; 0.33 µM, 72 h, 100% DMSO; baseline: vehicle): 89.7%
Cc1n[nH]c(C)c1CSc1ccc(O)cc1  selectivity index (U-937; cytotoxicity; baseline: IC50 HEK293 over IC50 U-937): 1.5
CC(C)NCC(O)c1ccc(O)c(O)c1 (centres unmarked)  sarcomere length (mouse ventricular cardiomyocytes; dose not given, 0.167 s): 1.6 µm
C=CCN1CC[C@]23c4c5ccc(O)c4O[C@H]2C(=O)CC[C@@]3(O)[C@H]1C5  G-protein activity (CHO-WT cells; cell membranes without MOR; 10 µM, compound alone, basal): no effect
CN1C[C@H](COc2nccc3c(NCc4ccco4)cc(Cl)nc23)OC1=O  Gb3 accumulation decrease (iPSC-derived cardiomyocytes, GLA mutant; concentration not given; baseline: untreated): 31.8%
O=c1[nH]nc(OCCCc2ccc(Cl)cc2)c(NCc2cccnc2)c1Br  normalized enrichment score (HEK-293T; RNA-seq GSEA, measured: HALLMARK_UNFOLDED_PROTEIN_RESPONSE; concentration not given; direction not given): 2.6
COc1c(C)c(OC(C)=O)c(C)c(O)c1C(=O)/C=C/c1ccccc1  selectivity index (KKU-M213; SRB; baseline: normal over KKU-M213 IC50): 0.72
O=C(CC1CCOCC1)Nc1ccc(C2CCCCC2)cc1  hepatic clearance (rat liver microsomes; 1 µM): 51 mL/min/kg
Nc1ncnc2c1ncn2[C@@H]1O[C@H](CO)[C@@H](O)[C@H]1O  log2 fold change (activated human T cells; measured: UDP; 30 µM; baseline: DMSO): -3.3
COc1c(C)c(OCc2ccccc2)c(C)c(O)c1C(=O)/C=C/c1ccccc1  selectivity index (KKU-M213; SRB; baseline: normal over KKU-M213 IC50): 0.97
COc1ccc(-n2nc(C(C)=O)s/c2=N\N=C(/C)c2ccc(NC(=O)c3ccccc3)cc2)cc1  toxicity (MCF7; 0.156 µM): 64%
CCCC(=O)Oc1c(C)c(O)c(C(=O)/C=C/c2ccccc2)c(OC)c1C  selectivity index (KKU-M213; SRB; baseline: normal over KKU-M213 IC50): 1.09
CCn1cc(-c2cc(Cn3ccoc3=N)cc3c2CCN([C@@H](C)c2cc(OC)ccn2)C3=O)c(C(F)(F)F)n1  EC50 (KLE; cell growth, inhibitor; 120 h): 0.107 µM
CSCC[C@H](NC(=O)[C@H](Cc1ccc(OS(=O)(=O)O)cc1)NC(=O)[C@@H](N)CC(=O)O)C(=O)NCC(=O)N[C@@H](Cc1c[nH]c2ccccc12)C(=O)N[C@@H](CCSC)C(=O)N[C@@H](CC(=O)O)C(=O)N[C@@H](Cc1ccccc1)C(N)=O  cAMP accumulation (HEK293T control virus; agonist, GloSensor cAMP; 0.128 nM, no receptor expressed; higher = more cAMP): 0.207 a.u.
O=C(Cc1cccnc1)Nc1ccc(C2CCCCC2)cc1  hepatic clearance (human liver microsomes; 1 µM, without NADPH): 3.9 mL/min/kg
Nc1cccc2c1CN(C1CCC(=O)NC1=O)C2=O (centres unmarked)  viability (bone marrow CD138+ myeloma cells; XTT; 1.4 µM, phenol red-free RPMI): 55%
Cn1cc(Nc2nccc(-c3ccc4c(c3)CN(C3COC3)CC[C@H]4NC(=O)c3cn(C(C)(C)C)nn3)n2)cn1  number of downregulated genes (human B cells; 100 nM, 64 h, non-stimulation-regulated genes, added: anti-IgM): 930
Cc1cc(Nc2ncc(Cl)c(Nc3ccccc3S(=O)(=O)C(C)C)n2)c(OC(C)C)cc1C1CCNCC1  log2 fold change (CLB-BAR; phosphoproteomics LC-MS/MS, measured: IRS2 phosphorylation; 200 nM, 60 min; baseline: untreated): -4.17
CCCCN1C[C@H](O)[C@@H](O)[C@@H](O)[C@H]1CO  IC50 (sample A patient fibroblasts; GlcCer level lowering, LC-MS/MS, measured: GlcCer d18:1/24:1; 216 h): 43.4 µM
O=c1ccn([C@@H]2O[C@H](CO)[C@@H](O)[C@H]2O)c(=O)[nH]1  T cell proliferation (activated human T cells; human; 31.6 µM): 104% and 111% and 109% and 99.4%
C=CCn1c(=O)c2cnc(Nc3ccc(N4CCN(C)CC4)cc3)nc2n1-c1ccc2c(n1)[C@@](O)(CC)CC2  G2/M phase cells (Kuramochi; flow cytometry; concentration not given): 19.9%
Cn1cc(-c2ccc(-c3cncc(Cl)c3N3CCC4(CCNC4=O)CC3)cc2)cn1  log2 fold change (COLO 205; gene expression, microarray, measured: IFIT2 mRNA; concentration not given, 6 h; baseline: untreated cells): 4.59
CCn1cc(-c2cc(Cn3ccnc3)cc3c2CCN([C@H](c2cc(OC)ccn2)C2CC2)C3=O)c(C(F)(F)F)n1  EC50 (PLC-PRF-5; cell growth, inhibitor; 120 h): > 30 µM
COc1ccc(NC(=S)N/N=C/c2cccc3cc4ccccc4nc23)cc1  mitochondrial membrane potential (HeLa; TMRE flow cytometry; IC12.5, 48 h, unit not given; baseline: DMSO control): 1.03 ± 0.4
Cn1c(Nc2nc3ccc(C(F)(F)F)cc3s2)nc2cc(C(=O)NCCOCCO)ccc21  fold change (SH-SY5Y; RNA-seq, measured: PHLDA1 mRNA; 5 µM, 5 h; baseline: untreated cells): 1.64
Cc1nc(NC(=O)N2CCC[C@H]2C(N)=O)sc1-c1ccnc(C(C)(C)C(F)(F)F)c1  Hill coefficient (SNU-1076; cell growth, CellTiter-Glo; 120 h): 0.747
